Measurements gathered from unrelated publications.
Target: Fibroblast growth factor receptor 2 (FGFR2, Homo sapiens, UniProt P21802)
Chain of UniProt P21802 (whole entry, looked up): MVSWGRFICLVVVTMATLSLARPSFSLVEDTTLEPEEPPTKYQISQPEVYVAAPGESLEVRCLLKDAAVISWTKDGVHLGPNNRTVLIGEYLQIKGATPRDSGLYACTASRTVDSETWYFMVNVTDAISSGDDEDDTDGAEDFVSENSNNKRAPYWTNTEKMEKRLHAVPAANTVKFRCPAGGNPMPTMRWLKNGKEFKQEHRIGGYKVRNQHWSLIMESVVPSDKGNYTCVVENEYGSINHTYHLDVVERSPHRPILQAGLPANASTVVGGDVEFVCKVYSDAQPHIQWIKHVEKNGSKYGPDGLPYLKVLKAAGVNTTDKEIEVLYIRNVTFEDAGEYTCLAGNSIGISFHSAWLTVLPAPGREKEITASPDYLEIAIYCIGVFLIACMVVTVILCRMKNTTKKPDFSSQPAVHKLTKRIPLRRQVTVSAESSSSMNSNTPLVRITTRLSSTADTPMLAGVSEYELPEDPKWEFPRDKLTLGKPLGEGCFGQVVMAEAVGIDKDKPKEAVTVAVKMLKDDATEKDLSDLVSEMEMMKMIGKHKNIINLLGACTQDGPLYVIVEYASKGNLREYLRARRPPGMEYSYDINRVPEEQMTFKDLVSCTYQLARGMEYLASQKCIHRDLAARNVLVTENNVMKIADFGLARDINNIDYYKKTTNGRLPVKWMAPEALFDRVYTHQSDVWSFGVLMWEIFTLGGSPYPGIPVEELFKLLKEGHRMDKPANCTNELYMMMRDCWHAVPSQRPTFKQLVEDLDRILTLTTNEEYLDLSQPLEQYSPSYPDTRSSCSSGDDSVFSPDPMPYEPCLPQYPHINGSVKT

Cc1nc2ccc(Cc3c[nH]c4ncc(C(F)(F)F)cc34)cc2o1 — IC50 (enzyme activity, inhibitor): 259 nM
O=c1[nH]c2ccccc2nc1/C=C/c1ccccc1Br — IC50 (enzyme activity, inhibitor, TR-FRET): > 100000 nM
CN1CCN(c2ccc(/C=C3\C(=O)Nc4ccc(-c5ccc(-c6ccc(O)cc6)cc5)cc43)cc2)CC1 — IC50 (enzyme activity, inhibitor): 6970 nM
COCCOCCOc1cc2nccc(Oc3ccc(NC(=O)NC4CC4)c(Cl)c3)c2cc1C(N)=O — IC50 (enzyme activity, inhibitor): 40 nM
C=CC(=O)N1CCC(c2c(-c3ccc(OC)cc3)c3c(N)ncnc3n2C)C1 (centres unmarked) — IC50 (Caliper mobility shift; 30 min preincubation, added: 100 µM ATP): 480 nM
COc1cc(OC)cc(C(O)c2c[nH]c3ncc(C(F)(F)F)cc23)c1 (centres unmarked) — IC50 (enzyme activity, inhibitor): 66 nM
C=CC(=O)N1CC=C(c2c(-c3ccc(Oc4cccc(C)n4)cc3)c3c(N)ncnc3n2C)C1 — IC50 (Caliper mobility shift; 30 min preincubation, added: 100 µM ATP): 6 nM
Cc1[nH]nc2c1N=C(c1ccccc1Cl)c1cnc(N3CCOCC3)cc1N2 — IC50 (enzyme activity, inhibitor): 1.5 nM

Some of these lines once more:
Cc1[nH]nc2c1N=C(c1ccccc1Cl)c1cnc(N3CCOCC3)cc1N2 — IC50 (enzyme activity, inhibitor): 1.5 nM
